Assay results gathered from unrelated publications.
Numbers after ± are the reported error.
Target: Cannabinoid receptor 2 (CNR2, Homo sapiens, UniProt P34972)
Sequence of UniProt P34972 (whole entry, looked up): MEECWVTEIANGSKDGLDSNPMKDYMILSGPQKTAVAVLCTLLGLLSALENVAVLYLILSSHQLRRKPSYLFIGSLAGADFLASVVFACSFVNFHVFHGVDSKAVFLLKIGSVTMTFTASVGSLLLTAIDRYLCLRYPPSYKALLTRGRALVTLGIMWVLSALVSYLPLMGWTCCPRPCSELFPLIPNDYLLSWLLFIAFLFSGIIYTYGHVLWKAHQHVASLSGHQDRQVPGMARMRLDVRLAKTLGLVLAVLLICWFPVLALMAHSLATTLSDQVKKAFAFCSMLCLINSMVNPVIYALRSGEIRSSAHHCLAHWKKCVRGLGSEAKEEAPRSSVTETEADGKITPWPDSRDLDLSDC

SMILES | assay | system | setting | how to read | quantity | result
CC1(Cc2ccccc2)COc2cc(C(=O)NC3CCCCC3)ccc21 (stereo not shown) | GTPγS binding, agonist, radiometric |  |  |  | Emax | 54.3%
C[C@H]1CC[C@@H](NC(=O)c2cc3cc(-c4ccco4)cnc3n(Cc3ccc(F)cc3)c2=O)CC1 | [3H]CP-55,940 displacement |  |  | baseline: cis over trans isomer | affinity ratio | 349 fold
CC1(C)Oc2cc([C@]34CC5CC(C[C@@](N=C=S)(C5)C3)C4)cc(O)c2[C@@H]2C[C@H](O)CC[C@H]21 | radioligand binding Bmax reduction | HEK293 membranes | 10-fold Ki, together with: [3H]CP-55,940 | baseline: untreated | covalent labeling | 25%
NC(=O)N1CCC[C@@H](CNC(=O)c2nn(Cc3ccc(F)cc3)c3ccccc23)C1 | calcium mobilization, agonist | CHO-K1 expressing Gαq16 |  | baseline: CP55,940 maximum | Emax | 29 ± 10%
CC1(Cc2ccccc2)COc2cc(C(=O)NCC3CCOCC3)ccc21 (stereo not shown) | GTPγS binding, agonist, radiometric |  |  |  | Emax | 49%
C[C@H]1CC[C@@H](NC(=O)c2cc3cc(Br)cnc3n(Cc3ccc(F)cc3)c2=O)CC1 | [3H]CP-55,940 displacement |  |  | baseline: cis over trans isomer | affinity ratio | 9 fold
CC(C)(NC(=O)c1nn(Cc2ccc(F)cc2)c2ccccc12)C1CCN(C(N)=O)CC1 | calcium mobilization, agonist | CHO-K1 expressing Gαq16 |  | baseline: CP55,940 maximum | Emax | 59 ± 2%
CC1(Cc2ccccc2)COc2cc(C(=O)N3CCOCC3)ccc21 (stereo not shown) | GTPγS binding, agonist, radiometric |  |  |  | Emax | 93%
CC(C)(NC(=O)c1nn(Cc2ccc(F)cc2F)c2ccccc12)c1cccc(C(N)=O)c1 | calcium mobilization, agonist | CHO-K1 expressing Gαq16 |  | baseline: CP55,940 maximum | Emax | ~17%
CC1(C)Oc2cc([C@]34CC5CC(C[C@@](N=[N+]=[N-])(C5)C3)C4)cc(O)c2[C@@H]2C[C@H](O)CC[C@H]21 | radioligand binding Bmax reduction | HEK293 membranes | 10-fold Ki, together with: [3H]CP-55,940 | baseline: untreated | covalent labeling | 26%

A few entries again:
SMILES | assay | system | setting | how to read | quantity | result
CC1(Cc2ccccc2)COc2cc(C(=O)N3CCOCC3)ccc21 (stereo not shown) | GTPγS binding, agonist, radiometric |  |  |  | Emax | 93%
